Measured values of several laboratories.
Each line is one published result; not all experiments were run side by side. Values joined by “and” are separate records of one study, mostly repeats; a detail may differ.
HTR7: 5-hydroxytryptamine receptor 7 (HTR7, Homo sapiens, UniProt P34969)

`O=C(O)c1cn(C2CC2)c2cc(N3CCNCC3)c(F)cc2c1=O` gave an inhibition of 86.9% (gyrA (Escherichia coli K-12, UniProt P0AES4); enzyme activity, inhibitor, DNA supercoiling; 10 µM).
`CC[C@@H]1[C@H](F)C(=O)N[C@@H]1COc1nccc2cc(C(N)=O)c(OC)cc12` gave an inhibition of -9.6% (FER (Homo sapiens, UniProt P16591); ATP-site probe binding, ActivX profiling; THP-1 cell lysate; 0.01 mM, Lys1 site).
For `CN(C(=O)n1cnc(-c2ccc[n+]([O-])c2)c1)C1CCCCC1`, the inhibition was -11.6% (HTR7; 10 µM).
For `O=C(CN1CCO[C@H](COc2ccccc2)C1)N1CCc2ccccc21`, the inhibition was 10.4% (HTR7; radioligand binding; concentration not given, added: [3H]LSD).
The inhibition of `NC/C(=C\F)COc1cccc(Cn2c(=S)[nH]c(=O)c3[nH]cnc32)c1` is reported as -11.8% (Myeloperoxidase (MPO, Homo sapiens, UniProt P05164); enzyme activity, Amplex Red; 8.468e-05 µM).
`O=C(CN1CCO[C@H](COc2cccc(Cl)c2)C1)N1CCc2ccccc21` has an inhibition of 21.7% (HTR7; radioligand binding; concentration not given, added: [3H]LSD).
For `O=C(NO)c1ccc(CN2CCCCc3ccccc32)c(F)c1`, the inhibition was 4.85% (HTR2A (Homo sapiens, UniProt P28223); radioligand binding, PDSP radioligand binding; 10 µM).
The inhibition of `O=C(CN1CCO[C@@H](COc2cccnc2)C1)N1CCc2ccccc21` is reported as 1% (HTR7; radioligand binding; concentration not given, added: [3H]LSD).
With `COc1cc(C(=O)NS(=O)(=O)c2ccccc2C)ccc1Cc1cn(C)c2ccc(NC(=O)OC3CCCC3)cc12` the inhibition was 84.7% and 94.6% and 99.3% and 95.5% and 96% (Volume-regulated anion channel subunit LRRC8C, part LRRC8A IL1 chimera (LRRC8C, Homo sapiens, UniProt Q8TDW0, I133F); ion current, inhibitor, whole-cell patch clamp; HCT LRRC8-/- cells; 30 µM, +100 mV).

Repeated from above:
`O=C(O)c1cn(C2CC2)c2cc(N3CCNCC3)c(F)cc2c1=O` gave an inhibition of 86.9% (gyrA (Escherichia coli K-12, UniProt P0AES4); enzyme activity, inhibitor, DNA supercoiling; 10 µM).
